Measured values pooled from the literature.
Each numbered part is a random draw from the data of one study; scales do not carry over between parts. Positions count from the first letter of the parent shown.

Series 1
Target: RNA binding protein fox-1 homolog 2, RRM domain, GST-SBP tag (RBFOX2, Homo sapiens, UniProt O43251-10, residues 100-194)
Technique: RNA Bind-n-Seq
Molecule type: RNA
Matrix: in vitro
Concentration: 365 nM
Setting: natural RNA segment, single round, ends assumed
Baseline: no-protein control
Reading: higher = stronger binding
Constant ends, left off below: GGGAGUUCUACAGUCCGACGAUC … UGGAAUUCUCGGGUGCCAA
Construct (chain): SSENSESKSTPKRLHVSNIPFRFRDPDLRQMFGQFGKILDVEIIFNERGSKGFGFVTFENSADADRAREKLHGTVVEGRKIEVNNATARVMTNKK
| Sequence | RBNS enrichment (R) |
| --- | --- |
| CCAGUUCUCAUAAAUAUUGAUCACUUAAAAAACUUACUCUUUCUUGAAAAGGUACACAUGUAAAAUUUAGGAAAAUAACUAAAGUAGGGGCUGGAACCAUAAGAAGAAUG | 0.466 |
| ACUUUCAAAGGGUGUAGGACUCCAUACUCAGUGACAGGGCAGGAAGAGCCAAAGAUAACCACAGCCACAGCCUGUGGAGACCAGGGUUGGAAGCCAGGUGCAGGGCCAGG | 0.502 |
| AUGAGAGUCAAACACCCUGCCUACAAGGAGAUGUUUUGAAAUGGAGAGGAAAAUUGGCACCUCAUCUUUUAAAGGCAGUAAUGGAAUUGAUUUUCAGUAACUGAAUUUGU | 1.25 |
| UUCAGGCCCUAUGAGGGGGUGGGAAGGAAGGGUCUCUUCAGUUUUUUAGAUGAGCUGGGCUACUUUGUGCUCAGAGUCUACAUUCCAGAUUGAUUAGAGUCUUAGGACAU | 0.412 |
| CUCAUAUCCAUUCCAUGAGAAGGUGAGGGAUACCUCCUUGGGGCUGUUUGUAUCAUGGACUGUCAUGCUCUAUGCCUGGUCCUGGGGUCUCUAGAGGAUACUCAUCUGGA | 0.522 |
| UAUUUAUUUUAAAUGUUUACAUCUUCUUUAUGUUGUAUCAAGCCUGAAUAGAAACUGAUAGCAUUAAAAUACUCCGUUCCUCUCUCUCUUCUCGCUUCCUUUUUUUUUUU | 1 |
| UUCUCCUGUCCUUUUCUUGGCUGGAAGAAGUUGGCCUCCUGGGAGUGUAGUUUUCUGUUUUAAAUCCCCCACCCCUGGCUGGGCUCAGUGGCUCACCCCUGUAAUCCCAG | 0.346 |
| CCAGGUAGAGGCAGCUGUGUGUGGAGAUGCAGUGUGUUCCUAGAGAAGGUGAACAACCUGAAAGCGCCUGUGAAGGGAACCAGUCACUCUUCUGUACCUCUCUUCUCUUA | 0.62 |
| AAGCCAACUGACAAAGAUGCAUCACGUGUCUUAGGCUGAUGCCACUACCCGAUUUGUUUAUUUGCAAUUUGAGCCAUUUAAAGACCAAUAAACUUCCUUUUUUAAAAUGU | 0.5 |
| GUCAAUAUUUUCAAAUUUUUCUAGUUUCCACACACGAGGUCCUGCCUGGGGUUUGAGAAAGCCUGGUGGAGGAGUGUGGUGGUGUGAGUGGAGACUGGCUGGCAUUCCUC | 0.792 |
| GUGCCUCACAAGUGCCUUUUGAAAAGCCUUAAAUUCUGCAUUCCCAUAAAAUAAAGUUGAUGCCACCAGACAAAGCAUUUCUGGGUCUGUAUCUGCCUGGCUGGGGUUCA | 0.321 |
| GUAGUUUUUGAACAAGAAAAAGAACUUUGUAAAUCAUAUCAUUGGGAAAGUAUUUUCAAUAUUUAAAAAAAUUAAGCUGAAGAAAAACUGAUCUUUGAUCCUCCUGUGAA | 0.697 |

Series 2
Target: ATF7, bZIP domain (human)
Technique: DHFR protein complementation
Matrix: yeast
Setting: single substitutions, most at no-binding floor
Baseline: wild-type JUN-FOS pair
Reading: higher = stronger binding
Starting sequence: JUN, bZIP domain (human); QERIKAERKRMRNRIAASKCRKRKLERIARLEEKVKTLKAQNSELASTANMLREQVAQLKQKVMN; partner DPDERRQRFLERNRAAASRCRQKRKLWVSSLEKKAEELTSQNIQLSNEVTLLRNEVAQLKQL
| Substitution | binding fitness |
| --- | --- |
| S43H | -0.899 natural log |
| A57L | -1.08 natural log |
| R30A | -0.539 natural log |
| L52V | -1.35 natural log |
| V35C | -1 natural log |
| R53W | -1.55 natural log |
| R53I | -1.46 natural log |
| E44A | -1.03 natural log |
| N42L | -1.38 natural log |
| E44N | -1.17 natural log |
| E33F | -1.3 natural log |
| L38A | -1.49 natural log |
| V56C | -1.28 natural log |
| T48M | -0.904 natural log |
| N42Y | -1.19 natural log |
| E54W | -1.28 natural log |
| A40N | -1.09 natural log |
| A46P | -1.49 natural log |
| L52T | -1.5 natural log |
| N42M | -1.39 natural log |
| T37Q | -0.731 natural log |
| K34N | -1.4 natural log |

Series 3
Target: CEP164, C-terminal peptide (human)
Technique: DHFR complementation, deep sequencing
Matrix: yeast
Setting: single substitutions, model-inferred values
Baseline: wild type
Reading: higher = weaker binding
Starting sequence: PDZK1, PDZ domain 2 (human); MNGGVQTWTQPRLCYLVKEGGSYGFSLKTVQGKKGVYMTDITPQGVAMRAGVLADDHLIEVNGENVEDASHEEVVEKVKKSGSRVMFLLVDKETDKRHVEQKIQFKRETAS; partner HNRVKVYRF
| Substitution | binding free energy change [kcal/mol] |
| --- | --- |
| F87I | 0.656 |
| G63N | 0.117 |
| A54K | 0.119 |
| M86D | 0.0453 |
| D91G | -0.21 |
| V66S | 0.706 |
| F87G | 1.79 |
| M38C | 0.589 |
| G4K | -0.012 |
| F25Q | 1.36 |
| P11D | 0.494 |
| V66R | 0.888 |
| G24K | 1.01 |
| G32D | 0.0987 |
| K33S | 0.264 |
| Y37R | 0.487 |
| S111R | -0.0765 |
| V30E | -0.31 |

Series 4
Target: Sal-like protein 4, full length isoform A (SALL4, Homo sapiens, UniProt Q9UJQ4, residues 1-1053)
Chain of UniProt Q9UJQ4 (whole entry, looked up): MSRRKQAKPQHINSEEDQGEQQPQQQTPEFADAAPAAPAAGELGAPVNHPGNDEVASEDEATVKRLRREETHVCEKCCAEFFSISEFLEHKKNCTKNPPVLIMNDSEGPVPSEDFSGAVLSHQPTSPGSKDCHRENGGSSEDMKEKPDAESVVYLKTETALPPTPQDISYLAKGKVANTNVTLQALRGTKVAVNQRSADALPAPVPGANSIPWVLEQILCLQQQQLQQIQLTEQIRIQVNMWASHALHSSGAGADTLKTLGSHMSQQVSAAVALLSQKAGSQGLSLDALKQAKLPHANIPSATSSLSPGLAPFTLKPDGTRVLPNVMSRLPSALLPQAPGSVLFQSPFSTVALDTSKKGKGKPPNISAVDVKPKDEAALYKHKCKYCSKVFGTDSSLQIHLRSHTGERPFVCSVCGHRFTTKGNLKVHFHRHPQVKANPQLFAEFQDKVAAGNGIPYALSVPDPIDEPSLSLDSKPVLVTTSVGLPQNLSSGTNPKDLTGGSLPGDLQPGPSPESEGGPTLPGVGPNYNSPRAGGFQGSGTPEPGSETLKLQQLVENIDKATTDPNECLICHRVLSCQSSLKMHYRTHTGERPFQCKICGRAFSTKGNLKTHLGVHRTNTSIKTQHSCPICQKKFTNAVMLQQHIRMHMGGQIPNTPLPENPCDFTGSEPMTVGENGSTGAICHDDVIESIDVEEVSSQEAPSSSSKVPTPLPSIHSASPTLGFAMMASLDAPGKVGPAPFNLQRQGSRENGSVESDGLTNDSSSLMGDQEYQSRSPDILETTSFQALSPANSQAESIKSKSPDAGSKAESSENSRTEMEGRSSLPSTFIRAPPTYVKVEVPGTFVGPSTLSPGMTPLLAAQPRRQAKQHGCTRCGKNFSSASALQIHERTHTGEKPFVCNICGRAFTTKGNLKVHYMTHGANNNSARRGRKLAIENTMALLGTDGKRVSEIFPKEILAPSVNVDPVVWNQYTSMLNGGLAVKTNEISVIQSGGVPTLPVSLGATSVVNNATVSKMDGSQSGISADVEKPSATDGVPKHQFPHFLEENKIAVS
Technique: universal PBM
Molecule type: double-stranded DNA, one strand shown
Matrix: in vitro
Concentration: 600 nM
Setting: 8-mer, flanks averaged, mean of replicates
Reading: higher = stronger binding
| Sequence | E-score |
| --- | --- |
| GCTTGTAC | 0.0132 |
| CACTTATA | 0.282 |
| GTGAATGA | 0.115 |
| AGGTTGAC | 7.5e-05 |
| AATCCTCC | -0.169 |
| AATGGAAA | 0.197 |
| CGCCACTC | -0.0936 |
| AGATAACT | 0.177 |
| AACATAAA | 0.325 |
| CAAACTGG | -0.259 |
| CTCCGGTA | -0.0817 |
| AGAATTTG | 0.142 |
| CCGCGTTA | -0.169 |
| AATCATTA | 0.326 |
| CCTCACCG | -0.335 |
| CAAACGCC | -0.208 |
| GCATAACA | 0.242 |
| GACGAACA | -0.0319 |
| ATTTTTGA | 0.313 |
| CTACTTTA | 0.144 |
| GTATCCCA | -0.0348 |
| CGTTAGTC | 0.00211 |
| CAGGTGAC | -0.209 |
| ATGTAGGG | 0.0692 |
| ATCTTTGC | 0.084 |

Series 5
Target: Cyclic AMP-dependent transcription factor ATF-1 (ATF1, Homo sapiens, UniProt P18846, residues 1-271, full length assumed)
Technique: protein-binding microarray
Molecule type: double-stranded DNA, one strand shown
Matrix: in vitro
Concentration: not given
Setting: k-mer, scored over probes, only values ≥0.25
Reading: higher = stronger binding
Residues (chain): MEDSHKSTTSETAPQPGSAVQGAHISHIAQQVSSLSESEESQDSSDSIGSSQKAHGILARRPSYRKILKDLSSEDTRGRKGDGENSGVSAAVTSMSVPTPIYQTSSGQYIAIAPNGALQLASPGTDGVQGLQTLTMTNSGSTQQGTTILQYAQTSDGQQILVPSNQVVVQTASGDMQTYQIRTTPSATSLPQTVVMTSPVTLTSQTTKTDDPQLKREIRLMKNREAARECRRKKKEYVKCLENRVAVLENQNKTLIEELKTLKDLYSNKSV
| Sequence | E-score |
| --- | --- |
| AGTAACG | 0.272 |
| AACGTAG | 0.325 |
| GATGTGA | 0.316 |
| CTGTGAC | 0.367 |
| CCTTACG | 0.27 |
| ACGACAA | 0.254 |
| ATACCAC | 0.269 |
| ACGCAAT | 0.324 |
| CAACCAC | 0.275 |
| CACGTAA | 0.405 |
| CCGTCAC | 0.441 |
| ATTTACG | 0.277 |
| ACGTGTA | 0.326 |
| TACATCA | 0.276 |
| ATGACAA | 0.275 |
| ACGTACA | 0.344 |
| ACGTAAG | 0.415 |
| TAACGTA | 0.334 |
| CGTATGA | 0.292 |

Series 6
Target: Interferon regulatory factor 5, full length, phosphomimetic (IRF5, Homo sapiens, UniProt Q13568-2, residues 1-514, S451D/S453D/S456D/S462D)
Technique: protein-binding microarray
Molecule type: double-stranded DNA, one strand shown
Matrix: in vitro
Concentration: 940 nM top
Setting: 60-bp whole probe
Together with: salmon DNA 0.4 mg/ml
Baseline: random background probes
Reading: higher = stronger binding
Constant ends, left off below: GCCTAGCAC … GTCTTGATTCGCTTGACGCTGCTG
| Sequence | fitted relative affinity [z-score] |
| --- | --- |
| TTAGGTCTCCTTTTCTTTTAGTGCTAG | 1.02 |
| TTAGAACTGTGTATCGATTAGTGCTAG | 1.29 |
| GACGGTTCCGGACTGGGGACGTGCTAG | 0.049 |
| TTAGGTTTCCTTCTCGTTTAGTGCTAG | 2.21 |
| ACCCTGCCTAAAGCTAGTTTGTGCTAG | 0.0277 |
| GACGGACAGGGGTATCGGGACGTGCTA | 0.571 |
| TTAGATTTTGGGTATCGATTAGTGCTA | 3.61 |
| GACAGACTGGGTCTCGGGACGTGCTAG | -0.146 |
| TTAGGTTTCCACTTTCGGTTAGTGCTA | 4.78 |
| GATTCTTTCGATGCTAAACGAGTGCTA | 3.13 |
| TCAATCCCCAGTCTCATACTGTGCTAG | 0.911 |
| GACGAACTGAGTATCCAGACGTGCTAG | -0.504 |
| TTAGGTCTCGACACTGGGTTAGTGCTA | 1.24 |
| TCAAATTTTCATTTTCCACTGTGCTAG | 1.05 |
| GACGAACTGAGTATCGAGTCGTGCTAG | 2.17 |
| GACGGTCTCGGTCTCAGGACGTGCTAG | 3.38 |
| GTTTTTTAAAGTTTCAGTGAGTGCTAG | 1.44 |
| TTAGGACGGGGGTATCGGTTAGTGCTA | 8.16 |

Series 7
Target: ABI1, truncated, D143A, DHFR fusion (Arabidopsis thaliana)
Technique: DHFR PCA, deep sequencing
Matrix: yeast
Setting: methotrexate growth selection, single substitutions
Together with: (+)-ABA 4.8 µM
Baseline: wild-type fitted maximum
Reading: higher = stronger binding
Starting sequence: PYL1, truncated, DHFR fusion (Arabidopsis thaliana); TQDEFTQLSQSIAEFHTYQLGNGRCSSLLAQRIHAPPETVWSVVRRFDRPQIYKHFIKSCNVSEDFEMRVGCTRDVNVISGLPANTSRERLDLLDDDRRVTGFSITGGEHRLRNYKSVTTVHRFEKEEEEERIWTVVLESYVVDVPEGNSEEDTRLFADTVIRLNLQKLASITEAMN
| Substitution | relative binding score [%] |
| --- | --- |
| T135S | 67 |
| C72Q | 70.3 |
| E152D | 73.7 |
| E14I | 26.3 |
| L112T | -0.591 |
| P146E | -0.49 |
| H34R | 65 |
| R45E | -2.37 |
| W134L | 75.3 |
| E89M | 2.66 |
| A13W | 36.4 |
| R74W | 4.38 |
| D3S | 65.9 |
| P36G | 23.5 |
| Q51A | 17.5 |
| L82P | 26.1 |
| A84I | 9.74 |
| S42M | 48.5 |
| H110K | -0.246 |
| T154K | 5.03 |

Single results of other studies
| Molecule | target | assay | test system | conditions | how to read | quantity | result |
| --- | --- | --- | --- | --- | --- | --- | --- |
| PhoQ, residues 284 288 289 292 302 303 TLSLKA | PhoP, residues 12 14 15 18 19 VHSCL (Escherichia coli, UniProt P23836) | Sort-seq, measured: YFP reporter | E. coli | PhoQ-PhoP variant library, together with: 10 µM Mg2+ | baseline: high Mg2+ state, higher = stronger signaling | fold induction | 4.69 |

Repeated from above (series 3):
| Substitution | binding free energy change [kcal/mol] |
| --- | --- |
| G24K | 1.01 |
| M86D | 0.0453 |
| V66S | 0.706 |
| K33S | 0.264 |
| V66R | 0.888 |
| V30E | -0.31 |
| F87I | 0.656 |
| A54K | 0.119 |
| G32D | 0.0987 |
| G4K | -0.012 |
| P11D | 0.494 |
| D91G | -0.21 |
| F25Q | 1.36 |
| G63N | 0.117 |
| F87G | 1.79 |
| S111R | -0.0765 |
